{"data": "Assay results pooled from the literature", "note": "Numbered parts are unrelated; each lists some results of a single study. Positions count from the first letter of the parent shown."}
{"data": "Sample 1", "target": "CCNE2, cyclin fold, Cln2 fusion (human)", "method": "yeast growth competition, sequencing", "matrix": "yeast", "notes": "strong parent motif", "baseline": "not given", "direction": "higher = stronger binding", "starting sequence": "viral docking peptide; YKVKRRLVFGADD"}
{"Substitution": "YKVKTRLVFGADD [R5T]", "normalised enrichment score": 0.593}
{"Substitution": "YKVKRRLVWGADD [F9W]", "normalised enrichment score": 2.83}
{"Substitution": "YKVKRHLVFGADD [R6H]", "normalised enrichment score": 1.28}
{"Substitution": "YKVKRRLVFGSDD [A11S]", "normalised enrichment score": 6.08}
{"Substitution": "YKVVRRLVFGADD [K4V]", "normalised enrichment score": 4.16}
{"Substitution": "YKVKRILVFGADD [R6I]", "normalised enrichment score": 3.29}
{"Substitution": "YKVKRRMVFGADD [L7M]", "normalised enrichment score": 0.674}
{"Substitution": "YKVKRRLVFAADD [G10A]", "normalised enrichment score": 5.34}
{"data": "Sample 2", "target": "HLA class I histocompatibility antigen, A alpha chain, allele A*25:01 (Homo sapiens, UniProt P04439)", "observed": "peptide-MHC binding", "form": "peptide", "tested at": "concentration not given"}
{"Sequence": "DEWECTRDD", "binding": "inactive"}
{"Sequence": "MSADNAGAL", "binding": "inactive"}
{"Sequence": "ESEVDDPAM", "binding": "inactive"}
{"Sequence": "KVRDRNFQL", "binding": "inactive"}
{"Sequence": "GSFRKICGF", "binding": "inactive"}
{"Sequence": "TSCAPMMQK", "binding": "inactive"}
{"Sequence": "LEARVNLSV", "binding": "inactive"}
{"Sequence": "WLAGFEPSE", "binding": "inactive"}
{"data": "Sample 3", "target": "UBE2D2 UBC core domain (UniProt P62837)", "method": "yeast two-hybrid", "matrix": "yeast", "notes": "mostly zero background", "baseline": "not given", "direction": "higher = stronger interaction", "B1": "RNF135 RING domain (UniProt Q8IUD6); chain PVWLAEDDLGCIICQGLLDWPATLPCGHSFCRHCLEALWGARDARRWACPTCRQGAAQQPHLR", "B2": "RNF24 RING domain (UniProt Q9Y225); chain KVKELNLHELCAVCLEDFKPRDELGICPCKHAFHRKCLIKWLEVRKVCPLCNMPVLQLAQLH", "B3": "Ltn1 RING domain (UniProt Q6A009); chain VDKRFEGVEDCMICFSVIHGFNYSLPKKACRTCKKKFHSACLYKWFTSSNKSTCPLCRETFF", "B4": "PRKN RING domain (UniProt O60260); chain LIATNSRNITCITCTDVRSPVLVFQCNSRHVICLDCFHLYCVTRLNDRQFVHDPQLGYSLPCVAGCPNSLIKELHH", "B5": "TRIM22 RING domain (UniProt Q8IYM9); chain KEVKMSPQEGQKRDVCEHHGKKLQIFCKEDGKVICWVCELSQEHQGHQTFRINEVVKECQEK", "B6": "DTX1 RING domain (UniProt Q86Y01); chain QKVKNPPDEDCTICMERLVTASGYEGVLRHKGVRPELVGRLGRCGHMYHLLCLVAMYSNGNKDGSLQCPTCKAIYGEKTGTQ", "B7": "TRIM48 RING domain (UniProt Q8IWZ4); chain ISQVFQRELTCPICMNYFIDPVTIDCGHSFCRPCFYLNWQDIPILTQCFECIKTIQQRNLKT", "UniProt P62837, sequence (whole entry, looked up)": "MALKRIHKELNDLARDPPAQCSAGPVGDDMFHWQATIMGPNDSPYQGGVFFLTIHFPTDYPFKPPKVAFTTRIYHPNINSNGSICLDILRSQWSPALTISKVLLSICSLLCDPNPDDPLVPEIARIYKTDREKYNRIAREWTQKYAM"}
{"Sequence": "KLWDINAHITCRLCSGYLIDATTVTECLHTFCRSCLVKYLEENNTCPTCRIVIHQSHPLQ (PCGF3 RING domain (UniProt Q3KNV8))", "lacZ reporter activity": 0}
{"Sequence": "B1 (RNF135 RING domain)", "lacZ reporter activity": 0}
{"Sequence": "B2 (RNF24 RING domain)", "lacZ reporter activity": 0}
{"Sequence": "B3 (Ltn1 RING domain)", "lacZ reporter activity": 4740}
{"Sequence": "B4 (PRKN RING domain)", "lacZ reporter activity": 0}
{"Sequence": "B5 (TRIM22 RING domain)", "lacZ reporter activity": 0}
{"Sequence": "B6 (DTX1 RING domain)", "lacZ reporter activity": 12300}
{"Sequence": "B7 (TRIM48 RING domain)", "lacZ reporter activity": 0}
{"data": "Mixed results"}
{"Structure (SMILES)": "COc1ncnc(NS(=O)(=O)c2ccc(N)cc2)c1OC", "cell line": "HEK-293T/ACE2", "setting": "10 µM, 16 h", "scale": "baseline: vehicle", "quantity": "viability", "value": "99.9%"}
